Published values collected from several papers.
Each numbered part is a random draw from the data of one study; scales do not carry over between parts. Positions count from the first letter of the parent shown.

Block 1 — target: CCNA1, cyclin fold, Cln2 fusion (human); technique: yeast growth competition, sequencing; medium: yeast; notes: weak parent motif; reference: not given; reading: higher = stronger binding
Starting sequence: CDKN1B docking peptide (human); PSACRNLFGPVDH; partner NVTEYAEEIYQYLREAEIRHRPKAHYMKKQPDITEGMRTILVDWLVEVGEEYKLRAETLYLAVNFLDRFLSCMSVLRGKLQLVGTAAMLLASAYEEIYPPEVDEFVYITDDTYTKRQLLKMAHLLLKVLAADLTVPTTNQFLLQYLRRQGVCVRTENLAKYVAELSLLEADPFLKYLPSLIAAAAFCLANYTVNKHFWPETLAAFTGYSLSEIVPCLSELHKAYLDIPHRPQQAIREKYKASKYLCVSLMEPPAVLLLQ
| Substitution | normalised enrichment score |
| --- | --- |
| P10V | 0.199 |
| S2Q | 0.255 |
| G9K | 0.495 |
| V11F | 0.272 |
| V11A | 0.22 |
| P10S | 0.425 |
| C4N | 0.283 |
| F8E | 0.0804 |
| G9L | 0.525 |
| H13S | 0.212 |
| H13Q | 0.51 |
| L7K | 0.319 |
| P1N | 0.387 |
| D12E | 0.352 |
| D12C | 0.396 |
| L7A | 0.325 |
| V11E | 0.403 |
| S2V | 0.318 |
| V11K | 0.268 |
| V11T | 0.269 |
| A3I | 0.301 |
| N6T | 0.133 |
| F8P | 0.15 |
| L7I | 0.524 |

Block 2 — target: UBE2T UBC core domain (UniProt Q9NPD8); technique: yeast two-hybrid; medium: yeast; notes: mostly zero background; reference: not given; reading: higher = stronger interaction
B1: TRIM5 RING domain (UniProt Q9C035); chain ILVNVKEEVTCPICLELLTQPLSLDCGHSFCQACLTANHKKSMLDKGESSCPVCRISYQPENIRP
B2: TRIM4 RING domain (UniProt Q9C037); chain EAEDIQEELTCPICLDYFQDPVSIECGHNFCRGCLHRNWAPGGGPFPCPECRHPSAPAALRP
B3: TRIM5 RING domain (UniProt Q9C035); chain LREVKLSPEGQKVDHCARHGEKLLLFCQEDGKVICWLCERSQEHRGHHTFLTEEVAREYQVKL
B4: TRIM43 RING domain (UniProt Q96BQ3); chain FSHAFQKELTCVICLNYLVDPVTICCGHSFCRPCLCLSWEEAQSPANCPACREPSPKMDFKT
B5: RNF38 RING domain (UniProt Q9H0F5); chain PNNHQSEQTLCVVCMCDFESRQLLRVLPCNHEFHAKCVDKWLKANRTCPICRADASEVHRDS
B6: TRIML1 RING domain (UniProt Q8N9V2); chain LMENLREELTCFICLDYFSSPVTTECGHSFCLVCLLRSWEEHNTPLSCPECWRTLEGPHFQS
B7: TRIM24 RING domain (UniProt O15164); chain EAARLNLLDTCAVCHQNIQSRAPKLLPCLHSFCQRCLPAPQRYLMLPAPMLGSAETPPPVPAPGSPVSGSSPFATQVGVIRCPVCSQECAERHII
Target sequence (chain): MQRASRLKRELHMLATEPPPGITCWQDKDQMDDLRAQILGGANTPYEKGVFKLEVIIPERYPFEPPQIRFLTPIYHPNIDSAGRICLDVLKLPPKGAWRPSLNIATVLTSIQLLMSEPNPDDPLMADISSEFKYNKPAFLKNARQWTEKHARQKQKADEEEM
| Sequence | lacZ reporter activity |
| --- | --- |
| B1 (TRIM5 RING domain) | 0 |
| DHGAVGQEMCCPICCSEYVKGEVATELPCHHYFHKPCVSIWLQKSGTCPVCRCMFPPPL (PJA1 RING domain (UniProt Q8NG27)) | 0 |
| B2 (TRIM4 RING domain) | 0 |
| B3 (TRIM5 RING domain) | 0 |
| VEPSEENSKDCVVCQNGTVNWVLLPCRHTCLCDGCVKYFQQCPMCRQFVQESFALC (CGRRF1 RING domain (UniProt Q99675)) | 0 |
| B4 (TRIM43 RING domain) | 0 |
| FQGDVDEDLICPICSGVLEEPVQAPHCEHAFCNACITQWFSQQQTCPVDRSVVTVAHLRP (RNF41 RING domain (UniProt Q9H4P4)) | 0 |
| B5 (RNF38 RING domain) | 0 |
| B6 (TRIML1 RING domain) | 0 |
| B7 (TRIM24 RING domain) | 0 |

Block 3 — technique: RNA Bind-n-Seq; molecule type: RNA; medium: in vitro; tested at: 365 nM; reference: no-protein control; reading: higher = stronger binding
Target: RNA binding protein fox-1 homolog 2, RRM domain, GST-SBP tag (RBFOX2, Homo sapiens, UniProt O43251-10, residues 100-194)
Notes: natural RNA segment, single round, ends assumed
Shared flanks, not repeated: GGGAGUUCUACAGUCCGACGAUC … UGGAAUUCUCGGGUGCCAA
| Strand | RBNS enrichment (R) |
| --- | --- |
| AAAAACAAAAUGGAAAAAGUCACAAAAAAGUUUGUAUAAAGACGUAUUUUUGUACUACAUGGGGACUCUUCCUGCAUGUCAGCAAUAAAACUUCCUGAUCUGGAGCCACC | 0.566 |
| AAAAAACAAAAUAUAUUUUAGAUUUCUCCCCUAAAGUUAGUUAGAGAAAAAGGUCUAUUCUUCAGCAGAUCACUGUGGCCCCUCUUGGAGCUGGGUGUUUUCAAAUUUUC | 0.466 |
| UUAAUUCAGUUUUAACCAGUGAAAACUCGUGGUUUUUCUGAAAGAAAAAAGAAAAGGGUUUCCUAUCUGGUAUUAUAUAUGUCAAAUAAAUGUAUAAAGUAACACCCAAA | 0.636 |
| UGUAUUUCCCCCUUUCCACUGGGCCCUUCCAACACAAUGAAUGAAGGAAAUAUCAUUUAUUUAAGCAGCCUAUCAGUGAUUGCCAUUAGACUGUUGAAUACUGUUACUUU | 0.384 |
| GUUUCAUAAAUUUUAAAAUAAUUAUUUUUGACUAUGAACAUUAGUCCAAAUUUAAUAUUUGACACAGUUCAUACCAGCUUGCUACAAUAAUGAUAAUUUAUUAGUCUUUC | 4.07 |
| UGACCCUUUAAUACAUACAGUUCCUCAUGGUGUGGUGACCCCCCCCAACCAUAAAAUUAUCUUAUUGCUACUUCAUAACUGUAAUUUUGCUACUGUUAUAAAUCAUAAUG | 1.13 |
| AUGACCAAUGGGCCAUCGGACUGGAGACCCCUGAUUGUGGGAAGGGUUGCCAGGGAUAAAGAGCUUCCUCACUGGAUGGGACCCGCCUUUCUGUGUUGUGUUCUGCCCUG | 0.897 |
| CUACUUUUUGACUUCUGUUUGUCUUACGCUUCUCUCAGGGAAAAACAUGCAGUCCUCUAGUGUUUCAUGUACAUUCUGUGGGGGGUGAACACCUUGGUUCUGGUUAAACA | 0.503 |

Block 4 — technique: protein-binding microarray; molecule type: double-stranded DNA, one strand shown; medium: in vitro; tested at: 2540 nM top; notes: 60-bp whole probe; with: salmon DNA 0.4 mg/ml; reference: random background probes; reading: higher = stronger binding; shared flanks, not repeated: GCCTAGCAC … GTCTTGATTCGCTTGACGCTGCTG
Target: Interferon regulatory factor 3, full length, phosphomimetic (IRF3, Homo sapiens, UniProt Q14653, residues 1-427, S386D/S396D/S398D/S402D/T404D/S405D)
UniProt Q14653, sequence (whole entry, unmodified, looked up): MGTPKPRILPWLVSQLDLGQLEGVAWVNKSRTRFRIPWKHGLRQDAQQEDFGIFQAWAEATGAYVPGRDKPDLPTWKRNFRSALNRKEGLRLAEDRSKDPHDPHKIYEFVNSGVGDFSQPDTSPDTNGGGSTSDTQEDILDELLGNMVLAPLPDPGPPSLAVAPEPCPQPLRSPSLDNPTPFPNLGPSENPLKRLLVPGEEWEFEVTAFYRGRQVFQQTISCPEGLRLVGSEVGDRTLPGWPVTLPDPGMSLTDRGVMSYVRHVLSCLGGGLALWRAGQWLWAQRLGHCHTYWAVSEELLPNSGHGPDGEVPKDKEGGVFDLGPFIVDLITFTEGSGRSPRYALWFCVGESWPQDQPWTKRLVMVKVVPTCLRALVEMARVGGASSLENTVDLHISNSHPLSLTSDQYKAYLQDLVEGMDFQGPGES
| Strand | fitted relative affinity |
| --- | --- |
| TTTCAGCTGTTTTTCTCACCGTGCTAG | 1.63 z-score |
| GACGGTCTCCTTGTCCTGACGTGCTAG | 1.2 z-score |
| GACGATTCCAGTTTCGCGACGTGCTAG | 2.24 z-score |
| TTAGGTTTCGACTTTCGGATAGTGCTA | 3.81 z-score |
| TTCTCTCCCATTCTGAATTCGTGCTAG | 2.85 z-score |
| GACGGTATCGGTCTCGGGTCGTGCTAG | 4.72 z-score |
| GACGACCTGGGGTTTCGAGACGTGCTA | -0.0225 z-score |
| TCATAACTTATTCTCTAACTGTGCTAG | 0.518 z-score |
| TTAGGTCTCGGTATCGGCTAGTGCTAG | 1.02 z-score |
| TCACCTTTCTCTTGGAGACTGTGCTAG | 5.03 z-score |
| GACGGTCTCCTTCTCCTAACGTGCTAG | 4.24 z-score |
| TAAGGACTGCTTTTCCTTTAGTGCTAG | 0.988 z-score |
| GTGGGTTTGAGTCTTCTCCTGTGCTAG | -0.933 z-score |
| TTAGGTTCCGGTTTCGGTTAGTGCTAG | 7.72 z-score |
| TCAGATATAGGATAACGAACTGTGCTA | 0.23 z-score |
| GACGATATCGCGTATCGAGACGTGCTA | 0.0912 z-score |
| TTAGGTTTCGCCACTGGGTTAGTGCTA | 2.08 z-score |
| GACGGTATCCTTTTCCTGACGTGCTAG | 7.39 z-score |
| GACAATATCAGTATCGAGACGTGCTAG | 1.26 z-score |
